Results of several laboratories.
Each line is one published result; not all experiments were run side by side. ± marks the error that the study gave.

Compound	host	sample	route	dose	time	setting	tissue uptake
N=C(N)NCCC[C@@H]1NC(=O)[C@H](CCCCNC(=O)CNC(=O)CNC(=O)CNC(=O)CC[C@H](NC(=O)CNC(=O)CNC(=O)CNC(=O)[C@H](CCCCNC(=O)c2ccc(NN)nc2)NC(=O)c2ccc(NN)nc2)C(=O)NCC(=O)NCC(=O)NCC(=O)NCCCC[C@@H]2NC(=O)[C@@H](Cc3ccccc3)NC(=O)[C@H](CC(=O)O)NC(=O)CNC(=O)[C@H](CCCNC(=N)N)NC2=O)NC(=O)[C@@H](Cc2ccccc2)NC(=O)[C@H](CC(=O)O)NC(=O)CNC1=O [technetium-99m labelled]	female athymic nude mice	heart	intravenous	0.1 MBq	1 h	U-87 MG glioma xenograft	1.06 ± 0.22 %ID/g
CSCC[C@H](NC(=O)[C@H](CC(C)C)NC(=O)[C@H](Cc1c[nH]cn1)NC(=O)CNC(=O)[C@@H](NC(=O)[C@H](C)NC(=O)[C@H](Cc1c[nH]c2ccccc12)NC(=O)[C@H](CCC(N)=O)NC(=O)CNC(=O)[C@H](CO)NC(=O)CNC(=O)CCCCCCCNC(=O)CCC(=O)Nc1ccc(CNC23CNCCNCC(N)(CNCCNC2)CNCCNC3)cc1)C(C)C)C(N)=O [copper-64 labelled]	female SCID mice, PC-3 xenograft	bone	intravenous	0.6 MBq	4 h		0.533 ± 0.022 %ID/g
CC(C)C[C@H](NC(=O)[C@H](Cc1ccc(O)cc1)NC(=O)[C@@H](CCCNC(=N)N)NC(=O)[C@@H](CO)NC(=O)[C@H](Cc1ccccc1)NC(=O)[C@H](CC1CCCCC1)NC(=O)[C@H](CC(=O)O)NC(=O)CCC(C(=O)O)N1CCCN2CCN(CCCN(CC(=O)O)CC2)CC1)C(=O)N[C@@H](Cc1c[nH]c2ccccc12)C(=O)N[C@@H](CO)C(=O)O (stereo partly shown) [copper-64 labelled]	female NMRI nude mice	heart			22 h p.i.		0.6 ± 0.1 %ID/g
N=C(N)NCCC[C@@H]1NC(=O)[C@H](CCCCNC(=O)CCOCCOCCOCCOCCNC(=O)CN2CCN(CC(=O)O)CCN(CC(=O)O)CCN(CC(=O)O)CC2)NC(=O)[C@@H](Cc2ccccc2)NC(=O)[C@H](CC(=O)O)NC(=O)CNC1=O [indium-111 labelled]	athymic nude mice, female, U-87 MG glioma xenograft	spleen	intravenous	3 µCi	4 h		0.73 ± 0.16 %ID/g
N=C(N)NCCC[C@@H]1NC(=O)[C@H](CCCCNC(=O)CC[C@H](NC(=O)[C@H](CCCCNC(=O)c2ccc(NN)nc2)NC(=O)c2ccc(NN)nc2)C(=O)NCCCC[C@@H]2NC(=O)[C@@H](Cc3ccccc3)NC(=O)[C@H](CC(=O)O)NC(=O)CNC(=O)[C@H](CCCNC(=N)N)NC2=O)NC(=O)[C@@H](Cc2ccccc2)NC(=O)[C@H](CC(=O)O)NC(=O)CNC1=O [technetium-99m labelled]	female athymic nude mice	heart	intravenous	0.1 MBq	1 h	U-87 MG glioma xenograft	1.02 ± 0.06 %ID/g
N=C(N)NCCC[C@H](NC(=O)[C@H](CCCCN)NC(=O)[C@H](CCC(N)=O)NC(=O)CCOCCOCCOCCNC(=O)CN1CCN(CC(=O)O)CCN(CC(=O)O)CCN(CC(=O)O)CC1)C(=O)N[C@@H](CCCCN)C(=O)N[C@@H](CCCNC(=N)N)C(=O)N[C@@H](CCCCN)C(=O)N[C@@H](CCCCN)C(=O)N[C@@H](CO)C(=O)N[C@@H](CCCNC(=N)N)C(=O)N[C@@H](Cc1ccc(O)cc1)C(=O)N[C@@H](CCCCN)C(=O)N[C@@H](CO)C(=O)O [copper-64 labelled]	male C57BL/6 mice, B16-F10 tumour	blood	intravenous		60 min		0.88 ± 0.12 %ID/g
N=C(N)NCCC[C@@H]1NC(=O)[C@H](CCCCNC(=O)CC[C@H](NC(=O)CCOCCOCCOCCOCCNC(=O)CN2CCN(CC(=O)O)CCN(CC(=O)O)CCN(CC(=O)O)CC2)C(=O)NCCCC[C@@H]2NC(=O)[C@@H](Cc3ccccc3)NC(=O)[C@H](CC(=O)O)NC(=O)CNC(=O)[C@H](CCCNC(=N)N)NC2=O)NC(=O)[C@@H](Cc2ccccc2)NC(=O)[C@H](CC(=O)O)NC(=O)CNC1=O [indium-111 labelled]	athymic nude mice, female, U-87 MG glioma xenograft	spleen	intravenous	3 µCi	72 h		0.58 ± 0.09 %ID/g
N=C(N)NCCC[C@@H]1NC(=O)[C@H](CCCCNC(=O)CCOCCOCCOCCOCCNC(=O)CC[C@H](NC(=O)CCOCCOCCOCCOCCNC(=O)[C@H](CCCCNC(=O)c2ccc(NN)nc2)NC(=O)c2ccc(NN)nc2)C(=O)NCCOCCOCCOCCOCCC(=O)NCCCC[C@@H]2NC(=O)[C@@H](Cc3ccccc3)NC(=O)[C@H](CC(=O)O)NC(=O)CNC(=O)[C@H](CCCNC(=N)N)NC2=O)NC(=O)[C@@H](Cc2ccccc2)NC(=O)[C@H](CC(=O)O)NC(=O)CNC1=O [technetium-99m labelled]	female athymic nude mice	heart	intravenous	0.1 MBq	1 h	U-87 MG glioma xenograft	1.12 ± 0.18 %ID/g
N=C(N)NCCC[C@@H]1NC(=O)[C@H](CCCCNC(=O)CNC(=O)CNC(=O)CNC(=O)CC[C@H](NC(=O)CCOCCOCCOCCOCCNC(=O)CC[C@H](NC(=O)CN2CCN(CC(=O)O)CCN(CC(=O)O)CCN(CC(=O)O)CC2)C(=O)NCCOCCOCCOCCOCCC(=O)N[C@@H](CCC(=O)NCC(=O)NCC(=O)NCC(=O)NCCCC[C@@H]2NC(=O)[C@@H](Cc3ccccc3)NC(=O)[C@H](CC(=O)O)NC(=O)CNC(=O)[C@H](CCCNC(=N)N)NC2=O)C(=O)NCC(=O)NCC(=O)NCC(=O)NCCCC[C@@H]2NC(=O)[C@@H](Cc3ccccc3)NC(=O)[C@H](CC(=O)O)NC(=O)CNC(=O)[C@H](CCCNC(=N)N)NC2=O)C(=O)NCC(=O)NCC(=O)NCC(=O)NCCCC[C@@H]2NC(=O)[C@@H](Cc3ccccc3)NC(=O)[C@H](CC(=O)O)NC(=O)CNC(=O)[C@H](CCCNC(=N)N)NC2=O)NC(=O)[C@@H](Cc2ccccc2)NC(=O)[C@H](CC(=O)O)NC(=O)CNC1=O [indium-111 labelled]	female athymic nude mice	heart	intravenous	3 µCi	0.5 h	U-87 MG glioma xenograft	1.79 ± 0.31 %ID/g
CSCC[C@H](NC(=O)[C@H](CC(C)C)NC(=O)[C@H](Cc1c[nH]cn1)NC(=O)CNC(=O)[C@@H](NC(=O)[C@H](C)NC(=O)[C@H](Cc1c[nH]c2ccccc12)NC(=O)[C@H](CCC(N)=O)NC(=O)CCCCCCCNC(=O)CCC(=O)Nc1ccc(CNC23CNCCNCC(N)(CNCCNC2)CNCCNC3)cc1)C(C)C)C(N)=O [copper-64 labelled]	female SCID mice, PC-3 xenograft	muscle	intravenous	0.6 MBq	4 h		0.272 ± 0.077 %ID/g

For quick reference, copied from above:
Compound	host	sample	route	dose	time	setting	tissue uptake
CSCC[C@H](NC(=O)[C@H](CC(C)C)NC(=O)[C@H](Cc1c[nH]cn1)NC(=O)CNC(=O)[C@@H](NC(=O)[C@H](C)NC(=O)[C@H](Cc1c[nH]c2ccccc12)NC(=O)[C@H](CCC(N)=O)NC(=O)CNC(=O)[C@H](CO)NC(=O)CNC(=O)CCCCCCCNC(=O)CCC(=O)Nc1ccc(CNC23CNCCNCC(N)(CNCCNC2)CNCCNC3)cc1)C(C)C)C(N)=O [copper-64 labelled]	female SCID mice, PC-3 xenograft	bone	intravenous	0.6 MBq	4 h		0.533 ± 0.022 %ID/g
